Results pooled from the literature.
Protocols differ between the studies behind these lines. Several values in a cell are separate wells, animals, samples, runs or records. Numbers after ± are the reported error.

Under “mean blood pressure”, `CC(=O)Oc1ccccc1C(=O)O` is recorded as 32 ± 0.4 mmHg (male Hartley guinea pigs, anaesthetized; intravenous, 10 mg/kg over 10 min, after infusion).
`C[C@@H]1O[C@@H](O[C@H]2[C@H](Oc3cc(O)c4c(c3)O[C@H](c3ccc(O)cc3)CC4=O)O[C@H](CO)[C@@H](O)[C@@H]2O)[C@H](O)[C@H](O)[C@H]1O` gave a Papp of 1.03 ± 1.3 ×10⁻⁶ cm/s (PBS receiver; 50 mg/mL, 360 min, pH 6.8).
The CL of `COc1cc2c3c(n(CCCN4CCOCC4)c(=O)c2cc1OC)-c1cc2c(cc1C3=O)OCO2` is reported as 15 L/h/m² and 21.8 L/h/m² (beagle dog, female, plasma; intravenous infusion, 646 mg/m^2, 1 h infusion).
The intercompartmental clearance of `CN[C@H]1C(=O)N[C@@H]2Cc3ccc(cc3)Oc3cc4cc(c3O[C@@H]3O[C@H](C(=O)O)[C@@H](O)[C@H](O)[C@H]3NC(=O)CCCCCCCCC(C)C)Oc3ccc(cc3Cl)[C@@H](O)[C@@H]3NC(=O)[C@H](NC(=O)[C@@H]4NC(=O)[C@@H](NC2=O)c2cc(cc(O)c2Cl)Oc2cc1ccc2O)c1ccc(O)c(c1)-c1c(O[C@H]2O[C@H](CO)[C@@H](O)[C@H](O)[C@@H]2O)cc(O)cc1[C@@H](C(=O)NCCCN(C)C)NC3=O` is reported as 0.794 L/h (population PK model; paediatric patients; reference weight 70 kg).
The Vd of `N#C[C@@]12C[C@@H]1[C@@H](n1cnc3c(N[C@@H](C4CCC4)C4CC4)nc(I)nc31)[C@H](O)[C@@H]2O` is reported as 72.2 L/kg (Wistar rat, male, plasma; oral, 10.0 mg/kg).
Under “AUC(0-last) per dose”, `C=CC(=O)N(C)CCOc1c(N)ncnc1-c1cc(F)cc(NC(=O)c2ccc(C3CC3)cc2F)c1C` is recorded as 20.8 ng·h/mL/mg (human; oral, 20 mg, day 7, arithmetic mean, together with: ritonavir).
`Cc1nc(O)n2ncc(Cl)c2n1` gave a maximum haemolysis of 3.1% (sheep erythrocytes; 1 h, pH 7.5).
For `C[C@@H]1COCCN1c1cc(C2([S@](C)(=N)=O)CC2)nc(-c2cc[nH]c3nccc2-3)n1`, the Constipation incidence was 0% (Japanese advanced solid tumour patients; oral, 160 mg twice daily, any grade).
`O=C(N[C@H](Cc1c[nH]c2ccccc12)C(=O)Nc1ccncc1)c1ccc(-c2cc(C(F)(F)F)ccc2F)cc1F` has a concentration of 1220 nM (Swiss Webster mouse, female, heart; oral, 50 mg/kg, 2 h, 20% HPβCD vehicle).
The body weight of `COc1ccc(CNc2nc(-c3ccc(C(=O)O)cc3)nc3c2c2ccccc2n3C)cc1Cl` is reported as 23.3 g and 21.6 g and 22.7 g and 20.5 g (NSG mice; dose not given, day 2 of treatment).
For `COC(=O)c1ccc(-c2c(C)[nH]c3cc(OC)c(Cl)cc3c2=O)cc1`, the Papp was 198 ×10⁻⁶ cm/s (PAMPA; pH 7.4).
Under “blood HGB change”, `CCc1cc(C(=O)NC)c2nccc(N3CCc4c(cc(Cn5ccnc5)cc4-c4cn(C)nc4C(F)(F)F)C3=O)c2c1` is recorded as -0.56% (Sprague Dawley rats; oral, 100 mg/kg twice daily, 7 days; reference: vehicle).
The pKa (acidic) of `CCOC(=O)CNC(=O)c1ncccc1O` is reported as 7.7.
For `Cc1noc(C)c1Cn1cc(N2C(=O)CN(Cc3cccc(O)c3)C2=O)cn1`, the remaining parent was 95 % peak area (pooled rat liver microsomes Sprague-Dawley; 10 µM, 30 min, pH 7.4).
The median half-life of `COc1ncc(-c2nc3c(n2C(C)C)[C@H](c2ccc(Cl)cc2)N(c2cc(Cl)cn(C)c2=O)C3=O)c(OC)n1` is reported as 14.7 h (human patients, plasma; oral, 25 mg, cycle 1 day 1, low-dose).
`Cc1nc(Nc2ncc(C(=O)Nc3c(C)cccc3Cl)s2)cc(N2CCN(CCO)CC2)n1` has a related TEAEs of 100% (human; oral, 100 mg).
For `CN1CCN(c2cccc3c2CCN(C(=O)/C=C/c2c(-n4cnnn4)ccc(Cl)c2F)[C@@H]3C(=O)Nc2ccc(C(=O)O)cc2)C(=O)C1`, “subjects with treatment-related adverse event” read 16.7% (healthy human subjects; intravenous infusion, 1.5 mg/h, 2 h).
`Cc1cc(-c2nnc(N)nc2-c2ccc(F)cc2)cc(Cl)n1` — result for “patients with immune-mediated AE”: 0% (measured: Rash; IO-naive mCRPC patients, male; oral, dose not given, treatment-related, all grades).
`O=C(Nc1nc2cccc(-c3ccc(CN4CCS(=O)(=O)CC4)cc3)n2n1)C1CC1`: “treatment-emergent adverse events” 0% (measured: diarrhoea; human rheumatoid arthritis patients; oral, 150 mg once daily, 4 weeks, regardless of relatedness).
`N#Cc1ccc2c(c1)[C@H]1CCCN(C(=O)c3ccc4[nH]cnc4c3)[C@H]1C2` gave an androstenedione level of 9.5 nmol/L (human, male; 80 mg, day 15).
With `Cc1ccc(Sc2ccccc2N2CCNCC2)c(C)c1` the vomiting incidence was 0% (healthy adult men; oral, 5 mg single dose, treatment-emergent adverse events).
Under “mean blood pressure”, `O=C(CCCN1CC=C(n2c(=O)[nH]c3ccccc32)CC1)c1ccc(F)cc1` is recorded as 34 ± 0.3 mmHg (male Hartley guinea pigs, anaesthetized; intravenous, 0.03 mg/kg group, baseline before infusion).
`NC1(C(=O)N[C@@H](CCO)c2ccc(Cl)cc2)CCN(c2nc[nH]c3nccc2-3)CC1`: “incidence of maculopapular rash” 14.3% (metastatic CRPC patients; 400 mg b.i.d., any grade, treatment-related, together with: enzalutamide 160 mg daily).
`O=C(O)CCC(=O)O.[2H]C([2H])([2H])Oc1cc(C)c2[nH]ccc2c1CN1CC[C@@H](C2CC2)C[C@H]1c1ccc(C(=O)O)cc1` gave a CLss/F of 2.29 L/h (human, plasma; 100 mg twice daily, day 10, multiple ascending dose).
For `CNC(=O)c1ccc(-c2cnc3ncc(Cc4ccc5ncccc5c4)n3n2)cc1F`, “patients with adverse event” read 17% (measured: Headache, all grades; cancer patients; oral, 600 mg twice daily, other expansion cohort, any causality).
The Ctrough of `COCCOc1cnc2ccn([C@H](C)c3nnc4c(F)cc(-c5cnn(C)c5)cn34)c(=O)c2c1` is reported as 120 ng/mL (patients, plasma; oral, 100 mg once daily, day 1 24 h postdose).
For `COc1ccc([C@@H](O)c2cc(-c3ncnc4cc(N5CCOCC5)ccc34)c(F)cc2Cl)nn1`, “constipation TEAE incidence” read 0% (locally advanced rectal cancer patients; 100 mg, together with: capecitabine and radiotherapy).
`CNC(=O)c1ccc(-c2cnc3ncc(Cc4ccc5ncccc5c4)n3n2)cc1F` — result for “Vomiting dose reduction/interruption”: 4% (Japanese patients; oral, 400 mg, any grade).
`Cc1ccc([C@@H]2O[C@H](CO)[C@@H](O)[C@H](O)[C@H]2O)cc1Cc1ccc(-c2ccc(F)cc2)s1` — result for “urinary phosphate excretion change”: -36.4 mg (measured: inorganic phosphorus; Japanese type 2 diabetes patients; 25 mg, day 5, 24 h urine collection; reference: baseline).
With `Cc1cc(Nc2cc3ncccc3c(N[C@@H]3C[C@H]4CC[C@@H](C3)N4CCC#N)n2)n[nH]1` the pruritus incidence was 0% (healthy human subjects; oral, 30 mg, 14 days, multiple ascending dose).
The AUC(0-last) of `CC(F)(F)c1cc(F)ccc1-c1sc2cc(O)ccc2c1Oc1ccc(/C=C/C(=O)O)cc1` is reported as 22600 ng·h/mL (human, serum; oral, 450 mg once daily, cycle 1 day 28, fasted, mean).
For `CN(C(=O)n1cnc(-c2cccnc2)c1)[C@H]1CC[C@H](O)CC1`, the AUC(0-t) was 108 ng·h/mL (cynomolgus monkeys, plasma; oral, 1.0 mg/kg).
`Cc1nccc2c1c(=O)n(C)c1cc(OC[C@@H](N)CC(C)C)c(C#N)cc21` has a concentration of 317 nM (rat, lumbar spinal cord; intrathecal, 1 µg, 30 min).
`COCCc1ccc(OCC(O)CNC(C)C)cc1` (stereo not shown) has a pKa of 9.784 ± 0.002 (n-hexane/tris buffer partitioning; pH 8, free base).
For `COc1cc(N2CCC3(CCN(C)CC3)CC2)ccc1Nc1ncc(Cl)c(Nc2ccccc2P(C)(C)=O)n1`, the Q/F was 15.8 L/h (population PK model; human; oral, final model without outliers).
For `COc1ccnc(C(=O)NC(CO)C(=O)O)c1O` (racemic), the DT50 was 1000 days (aerobic dark soil incubation; silt loam soil; 20 °C, modelling endpoint).
The tissue concentration of `COc1ccc2c(=O)n(C)c(-c3ccccc3)nc2c1` is reported as 11.2 ng/mL (Sprague-Dawley rat, male, stomach; oral, 30 mg/kg, 4 h).
For `COCc1cc(C(=O)Nc2cc([C@H]3CC[C@@H](OC(=O)NC(C)C)C3)[nH]n2)n(C)n1`, the unbound C24h was 17 nM (OVCAR-3 xenograft, NOD/SCID gamma mice, plasma; oral, 15 twice daily, PK/PD study).
`Cc1ccc(O)c(-n2nc3ccccc3n2)c1`: “mean daily dermal uptake” 735 ng/kg body weight/day (exposure assessment; human, age 16-21 years; sunscreen).
For `CCOc1c([C@H](C)n2nc(C)c3c(N)ncnc32)cc(Cl)c(F)c1[C@@H]1CNC(=O)C1`, the ECG observations was 100% (measured: QTcF ≤450 ms; previously treated B-cell malignancy; oral, 45 mg once daily, baseline QTcF ≤450 ms).
`CCO[C@H]1CCN(Cc2c(OC)cc(C)c3[nH]ccc23)[C@H](c2ccc(C(=O)O)cc2)C1`: “incidence upper respiratory infection” 0% (PNH patients, active haemolysis; oral, 200 mg, 8 weeks, treatment).
`CCN1CCN(Cc2ccc(NC(=O)c3ccc(C)c(NC(=O)c4cncc(-c5cccs5)c4)c3)cc2C(F)(F)F)CC1`: “mean plasma concentration” 144 ng/mL (LC-MS/MS; C57BL/6 mouse, plasma; intraperitoneal, 15 mg/kg single dose, 4 h).
`C[C@@H](Oc1ccc(S(C)(=O)=O)cc1C(=O)N1C[C@@H]2C[C@]2(c2cc(C(F)(F)F)on2)C1)C(F)(F)F` has a Vz/F of 324 L (young humans, plasma; oral, 10 mg once daily, single dose, geometric mean).
For `Cc1cc(-c2nccc3c2ccn3CC(=O)Nc2ccc(-c3cnccn3)cn2)ccn1`, “subjects with Cough adverse event” read 0% (human; 5 mg once daily, multiple ascending dose).
`C[C@@H](Nc1cc(F)cc(F)c1)c1cc(C(=O)N(C)C)cc2c(=O)cc(N3CCOCC3)oc12` gave an AUC(0-12 h) of 2600 ng·h/mL (measured: M1 metabolite; human; oral, 120 mg, single dose day 1, 2:5 BID regimen).
`Cc1c(-c2ccc(N3CCc4cccc(C(=O)Nc5nc6ccccc6s5)c4C3)nc2C(=O)O)cnn1CC12CC3(C)CC(C)(C1)CC(OCCNCC[C@H](O)CO)(C3)C2` has a plasma concentration of less than 2 ng/mL (anaesthetized male beagle dog; iv infusion, 0.01 mg/kg/min, 120 min).
For `Cc1c2oc3c(C)ccc(C(=O)N[C@@H]4C(=O)N[C@H](C(C)C)C(=O)N5CCC[C@H]5C(=O)N(C)CC(=O)N(C)[C@@H](C(C)C)C(=O)O[C@@H]4C)c3nc-2c(C(=O)N[C@@H]2C(=O)N[C@H](C(C)C)C(=O)N3CCC[C@H]3C(=O)N(C)CC(=O)N(C)[C@@H](C(C)C)C(=O)O[C@@H]2C)c(N)c1=O`, “maximum plasma concentration” read 122 µg/L (children with cancer, plasma; dose not given, 15 min).
For `CNCc1ccc(-c2[nH]c3cc(F)cc4c3c2CCNC4=O)cc1`, “incidence of pulmonary embolism” read 0% (human patients; oral, dose not given, all grades, all doses).
Under “ALT increased grade ≥3”, `Cc1cc(C)c(CNC(=O)c2cc(Cl)c3c(c2C)O[C@@](C)([C@H]2CC[C@H](N(C)C)CC2)O3)c(=O)[nH]1` is recorded as 0% (human relapsed/refractory NHL; oral, 200 mg once daily, onset day 1 to 14).
`CCN1/C(=C/C(C)=O)Sc2ccc(F)cc21`: “diastolic blood pressure change” 105 ± 7.8% (cynomolgus monkey; oral, 10 mg/kg, 0.5 h post-dose; reference: pre-dose).
For `C=CC(=O)NC1CCN(c2ncc3ncnc(Nc4ccc(Oc5ccc6c(c5)ncn6C)c(C)c4)c3n2)CC1`, “participants with erythema” read 6.3% (human, male; oral, 240 mg, treatment-emergent adverse event).
`C=CCN1CC(=O)N2[C@@H](Cc3ccc(O)cc3F)C(=O)N(Cc3cccc(N4CC(N5CCN(CC)CC5)C4)n3)C[C@@H]2N1C(=O)NCc1ccccc1` — result for “treatment-related decreased appetite”: 0% (advanced solid tumour patients; oral, 20 mg twice daily, any grade, dose-escalation).
For `C[C@H](CS)C(=O)N1CCC[C@H]1C(=O)O`, “mean blood pressure” read 37 ± 0.1 mmHg (male Hartley guinea pigs, anaesthetized; intravenous, 3 mg/kg group, baseline before infusion).
With `O=C(O)CNC(=O)c1c(O)cc(CCc2ccccc2)n2ncnc12` the pKa (acidic) was 3.3.
`CC[C@H](C)[C@H](NC(=O)CN)C(=O)N[C@@H](C)C(=O)N[C@@H](CC(=O)O)C(=O)N[C@@H](C)C(=O)N[C@H](C(=O)N[C@@H](CCCCN)C(=O)N[C@@H](CCCCN)C(=O)N[C@H](C(=O)N[C@@H](C)C(=O)N[C@@H](CCCCN)C(=O)N[C@@H](C)C(=O)N[C@@H](CC(C)C)C(=O)NCC(N)=O)[C@@H](C)CC)[C@@H](C)CC` — result for “mean residue ellipticity”: -8630 deg cm2/dmol (circular dichroism at 222 nm; 30% TFE; 100 µM).
`CNC(=O)c1cc(Oc2ccc(NC(=O)Nc3cc(C(C)(C)C)nn3-c3ccc4ncccc4c3)c(F)c2)ccn1` — result for “patients with nervous system disorder AE”: 33% (measured: worst grade 1; human; oral, dose not given, cycles 1 and 2, High Cmax subgroup).
`COc1ccc(C[C@@H](C)[C@@H](C)Cc2ccc(OC)c(OC)c2)cc1OC` gave a Cmax of 1620 ± 245 ng/mL (beagle dog female, plasma; oral, 100 mg/kg/day, day 28).
`CC[C@@H]([C@H](C)O)n1ncn(-c2ccc(N3CCN(c4ccc(OC[C@@H]5CO[C@@](Cn6cncn6)(c6ccc(F)cc6F)C5)cc4)CC3)cc2)c1=O` — result for “stability relative error”: -11.3% (rat plasma; 2 ng/mL, three freeze-thaw cycles; reference: nominal concentration).
